Published values from different studies.
A part holds a random share of what one study measured.
UniProt O43283, sequence (whole entry, looked up): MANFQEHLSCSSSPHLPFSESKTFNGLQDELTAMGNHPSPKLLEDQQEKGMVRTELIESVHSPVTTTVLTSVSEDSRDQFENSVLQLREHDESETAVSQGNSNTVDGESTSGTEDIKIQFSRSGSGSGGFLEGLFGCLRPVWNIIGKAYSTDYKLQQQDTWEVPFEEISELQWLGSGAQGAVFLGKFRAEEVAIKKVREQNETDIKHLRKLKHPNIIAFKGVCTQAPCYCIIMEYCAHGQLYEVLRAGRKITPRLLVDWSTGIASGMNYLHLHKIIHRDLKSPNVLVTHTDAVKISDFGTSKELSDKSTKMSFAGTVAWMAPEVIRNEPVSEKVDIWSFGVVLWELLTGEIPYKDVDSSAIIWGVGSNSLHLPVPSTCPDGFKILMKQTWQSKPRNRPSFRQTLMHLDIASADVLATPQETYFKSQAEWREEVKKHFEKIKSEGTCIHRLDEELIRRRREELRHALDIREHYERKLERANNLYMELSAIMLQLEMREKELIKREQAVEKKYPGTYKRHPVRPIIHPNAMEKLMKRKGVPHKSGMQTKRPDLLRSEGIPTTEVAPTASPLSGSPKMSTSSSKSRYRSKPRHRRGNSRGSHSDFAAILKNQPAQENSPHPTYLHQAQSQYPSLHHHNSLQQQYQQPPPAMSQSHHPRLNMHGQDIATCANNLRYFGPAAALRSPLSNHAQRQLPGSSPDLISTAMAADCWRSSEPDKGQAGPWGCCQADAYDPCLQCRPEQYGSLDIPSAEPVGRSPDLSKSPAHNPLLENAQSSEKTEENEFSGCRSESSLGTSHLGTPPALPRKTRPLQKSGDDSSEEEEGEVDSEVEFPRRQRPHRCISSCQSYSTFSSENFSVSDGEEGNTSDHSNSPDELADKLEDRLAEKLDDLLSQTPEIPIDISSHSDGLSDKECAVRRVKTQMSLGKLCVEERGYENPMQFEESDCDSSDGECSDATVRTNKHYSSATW
UniProt Q9Y3S1, sequence (whole entry, looked up): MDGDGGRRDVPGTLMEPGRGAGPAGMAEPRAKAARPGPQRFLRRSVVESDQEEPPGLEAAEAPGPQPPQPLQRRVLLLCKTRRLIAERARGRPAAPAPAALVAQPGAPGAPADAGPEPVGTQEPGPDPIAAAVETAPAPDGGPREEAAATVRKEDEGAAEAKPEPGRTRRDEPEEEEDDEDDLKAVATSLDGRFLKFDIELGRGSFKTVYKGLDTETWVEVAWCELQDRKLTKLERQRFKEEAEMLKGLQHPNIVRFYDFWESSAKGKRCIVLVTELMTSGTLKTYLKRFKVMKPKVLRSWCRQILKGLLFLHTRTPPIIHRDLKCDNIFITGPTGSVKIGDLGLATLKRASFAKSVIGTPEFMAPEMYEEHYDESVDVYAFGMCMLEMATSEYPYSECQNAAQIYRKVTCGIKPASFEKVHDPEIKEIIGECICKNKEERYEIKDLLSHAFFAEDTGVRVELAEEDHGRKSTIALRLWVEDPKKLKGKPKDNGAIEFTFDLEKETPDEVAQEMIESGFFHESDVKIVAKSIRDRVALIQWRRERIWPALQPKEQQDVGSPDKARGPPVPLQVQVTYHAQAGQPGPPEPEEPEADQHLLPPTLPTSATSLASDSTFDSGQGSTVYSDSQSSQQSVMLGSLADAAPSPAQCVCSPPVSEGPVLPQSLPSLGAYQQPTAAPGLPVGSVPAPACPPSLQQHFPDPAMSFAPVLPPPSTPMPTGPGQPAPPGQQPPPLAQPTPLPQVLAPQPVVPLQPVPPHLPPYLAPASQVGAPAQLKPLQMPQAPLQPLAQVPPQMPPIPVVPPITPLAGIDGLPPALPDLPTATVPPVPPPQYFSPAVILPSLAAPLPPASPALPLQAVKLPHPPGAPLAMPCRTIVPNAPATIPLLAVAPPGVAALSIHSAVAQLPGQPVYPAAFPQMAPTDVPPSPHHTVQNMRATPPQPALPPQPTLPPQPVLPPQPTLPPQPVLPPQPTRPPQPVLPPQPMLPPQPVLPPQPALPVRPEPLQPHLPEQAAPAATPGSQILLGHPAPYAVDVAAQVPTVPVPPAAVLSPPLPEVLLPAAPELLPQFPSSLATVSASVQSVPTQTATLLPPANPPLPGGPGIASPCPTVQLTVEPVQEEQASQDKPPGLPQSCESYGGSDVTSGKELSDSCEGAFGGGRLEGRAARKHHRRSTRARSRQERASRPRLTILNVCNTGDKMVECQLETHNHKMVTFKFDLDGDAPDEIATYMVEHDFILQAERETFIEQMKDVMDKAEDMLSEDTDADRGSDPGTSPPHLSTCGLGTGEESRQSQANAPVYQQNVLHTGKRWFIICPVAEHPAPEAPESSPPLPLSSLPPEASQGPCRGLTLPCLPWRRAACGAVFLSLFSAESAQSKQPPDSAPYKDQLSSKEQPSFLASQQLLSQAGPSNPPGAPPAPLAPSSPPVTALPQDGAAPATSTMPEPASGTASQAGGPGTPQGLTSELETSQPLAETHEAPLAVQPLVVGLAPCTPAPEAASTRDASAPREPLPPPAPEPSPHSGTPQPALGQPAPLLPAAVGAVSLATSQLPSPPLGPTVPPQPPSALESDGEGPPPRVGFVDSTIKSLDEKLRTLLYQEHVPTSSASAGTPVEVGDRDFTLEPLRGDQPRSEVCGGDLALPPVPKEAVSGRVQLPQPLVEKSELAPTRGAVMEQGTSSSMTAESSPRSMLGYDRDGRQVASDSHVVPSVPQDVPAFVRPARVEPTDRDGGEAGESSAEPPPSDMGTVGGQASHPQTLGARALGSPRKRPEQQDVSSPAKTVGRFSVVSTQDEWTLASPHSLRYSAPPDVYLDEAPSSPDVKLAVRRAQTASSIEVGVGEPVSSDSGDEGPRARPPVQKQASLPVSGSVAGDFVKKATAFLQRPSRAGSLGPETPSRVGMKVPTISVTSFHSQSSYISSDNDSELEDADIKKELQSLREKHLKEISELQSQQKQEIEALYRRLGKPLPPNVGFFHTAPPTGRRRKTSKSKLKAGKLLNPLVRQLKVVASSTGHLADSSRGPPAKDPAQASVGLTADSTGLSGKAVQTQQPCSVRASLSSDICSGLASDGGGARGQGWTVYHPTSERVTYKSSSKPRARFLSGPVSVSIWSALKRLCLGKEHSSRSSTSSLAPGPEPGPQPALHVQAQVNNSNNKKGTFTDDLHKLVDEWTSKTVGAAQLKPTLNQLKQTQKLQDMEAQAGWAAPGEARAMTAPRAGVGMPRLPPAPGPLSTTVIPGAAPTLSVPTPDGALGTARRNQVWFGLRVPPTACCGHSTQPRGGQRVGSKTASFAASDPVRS

Series 1 — technique: RNA Bind-n-Seq; form: RNA; sample: in vitro; tested at: 365 nM; reference: no-protein control; reading: higher = stronger binding
Target: RNA binding protein fox-1 homolog 2, RRM domain, GST-SBP tag (RBFOX2, Homo sapiens, UniProt O43251-10, residues 100-194)
Notes: natural RNA segment, single round, ends assumed
All sequences stand within: GGGAGUUCUACAGUCCGACGAUC … UGGAAUUCUCGGGUGCCAA
Construct (chain): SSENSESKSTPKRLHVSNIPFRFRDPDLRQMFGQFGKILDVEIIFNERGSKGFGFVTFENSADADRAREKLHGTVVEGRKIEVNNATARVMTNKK
| Strand | RBNS enrichment (R) |
| --- | --- |
| AUCUGCACGUGACUGGCAUUUUAAAACAACUCAUUAAAUAUUGGAUUCAUUUUAUCGAGAUGCCAAGAUGAACACAAUGUGAAUAUCAUUUCCAUUUCUAAGCAGUUGAA | 1.34 |
| UCCAUUUGGCCUGUGAAGGAAGUAACCUCACUUUGCUGUCUGAGCAGCAUGUAUUCCUGGCAUGGGCUCUCCUAGUGGUCCAUGUGCAUCCUUGCGCAUGUGCACUCGCU | 3.23 |
| CCUCCCCUUGGAAGUUCCCCAUUGUCACUGAGAACCACCAAAUUUGACUUUCACAUUUGGUCUCAGAAUUUAGGUUCCUGCCCUGUUGUUUUUCUUUCUUUUUCUUUUUU | 0.74 |
| CCAUCACACCUCGGCGGCCUUUAUUUAUUCUGUUCCCCCAGCUCGGCCACUUCUCUGAAGGAGGGCUGGGUUCUGGGCCUGUAUCGAAUAAACACAAACCUGGAUGGCGC | 0.245 |
| UCCUUUUGAAUUACUGGGCAGGGAGGUGAGUGGAUGACUUAAUGAUUUCAUGAAUGAAAUAAAGAUUUGUUAGUGGGAAGCAAAUAAAACACAUUAAGUUGAUUGAGUUG | 1.7 |
| CUACACCCCGCUUCUCCCGGACUCUCCCAGCGGACAGCCCCCCAGCCCCACAGCCUGAGCCUCCCAGCUGCCAUGUGCCUGUUGCACACCUGCACACACGCCCUGGCACA | 0.822 |
| UGUGUCCGUGUGCAUGGCCUGUUUGUGUGCAAGGGCCCAGGACAGAAGUAUGUGUGCGUGUGUGUGUGCGUAUGCGUGUGAGACAGGGCCGCCGUGGGUGUGCGUGUGUG | 2.23 |
| CCAAACAACCAAAUGGCUGGGCAGCUUGUUGUCACGGAUAAAUGAUAUAAAAUGUAACCACUGAACAUUUGACAACUUUGUUGCAUUAUCAUUUUUAAAAAAAGAUGAAG | 0.6 |

Series 2 — technique: protein-binding microarray; form: double-stranded DNA, one strand shown; sample: in vitro; tested at: 2540 nM top; notes: 60-bp whole probe; with: salmon DNA 0.4 mg/ml; reference: random background probes; reading: higher = stronger binding; all sequences stand within: GCCTAGCAC … GTCTTGATTCGCTTGACGCTGCTG
Target: Interferon regulatory factor 3, full length, phosphomimetic (IRF3, Homo sapiens, UniProt Q14653, residues 1-427, S386D/S396D/S398D/S402D/T404D/S405D)
Construct (chain): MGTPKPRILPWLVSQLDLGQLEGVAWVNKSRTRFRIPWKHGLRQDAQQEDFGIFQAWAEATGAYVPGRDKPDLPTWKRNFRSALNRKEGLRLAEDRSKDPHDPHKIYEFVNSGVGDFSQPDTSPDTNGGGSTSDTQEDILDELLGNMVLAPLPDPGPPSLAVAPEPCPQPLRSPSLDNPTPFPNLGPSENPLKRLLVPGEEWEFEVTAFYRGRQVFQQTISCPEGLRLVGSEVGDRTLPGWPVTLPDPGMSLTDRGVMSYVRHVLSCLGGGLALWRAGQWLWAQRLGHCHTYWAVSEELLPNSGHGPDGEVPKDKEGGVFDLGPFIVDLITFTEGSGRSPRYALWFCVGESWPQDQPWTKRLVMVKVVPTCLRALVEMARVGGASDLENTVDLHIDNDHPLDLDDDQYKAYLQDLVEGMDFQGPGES
| Strand | fitted relative affinity [z-score] |
| --- | --- |
| TTCTATGTCTGTTTTTGCTTGTGCTAG | 0.581 |
| TTAGAACTGGACACTGGGTTAGTGCTA | -0.688 |
| GACAGTTTCGACTTTCGGGACGTGCTA | 4 |
| GACGGTTTTGACTATCGGGACGTGCTA | 0.7 |
| GACTGACTGGGTTTCGGGACGTGCTAG | 1.23 |
| GACGGTATCCTGTTCCTGACGTGCTAG | 2.21 |
| AATTTTTACTTTCTGAATGCGTGCTAG | 4.08 |
| GACGGTATCGGATTCGGGACGTGCTAG | 4.66 |

Further values, each from its own experiment
| SMILES | target | assay | conditions | how to read | measurement | value |
| --- | --- | --- | --- | --- | --- | --- |
| O=C(Nc1cccnn1)N1CC(C/C=C/c2cncc(Oc3ccc(C(F)(F)F)cn3)n2)C1 | Mitogen-activated protein kinase kinase kinase 13 (MAP3K13, Homo sapiens, UniProt O43283) | cell-free assay, competition with immobilised ligand | 1 µM |  | remaining binding | 0% |
| COc1cc2nccc(Oc3ccc(NC(=S)NC(=O)c4ccccc4C)cc3)c2cc1OC | Serine/threonine-protein kinase WNK2 (WNK2, Homo sapiens, UniProt Q9Y3S1) | enzyme activity, inhibitor | 0.5 µM | reference: control | remaining activity | 94.1% |

Some of these lines once more (series 1):
| Strand | RBNS enrichment (R) |
| --- | --- |
| UCCAUUUGGCCUGUGAAGGAAGUAACCUCACUUUGCUGUCUGAGCAGCAUGUAUUCCUGGCAUGGGCUCUCCUAGUGGUCCAUGUGCAUCCUUGCGCAUGUGCACUCGCU | 3.23 |
| CCUCCCCUUGGAAGUUCCCCAUUGUCACUGAGAACCACCAAAUUUGACUUUCACAUUUGGUCUCAGAAUUUAGGUUCCUGCCCUGUUGUUUUUCUUUCUUUUUCUUUUUU | 0.74 |
